Experimental data gathered from unrelated publications.
Protocols differ between the studies behind these lines. pEC50, pIC50: −log10 of the molar value.
Cell line: SW-620

SMILES = CCCCN1CCN(c2ccc3[nH]c(-c4ccc5[nH]c(-c6ccc(C(F)(F)F)cc6)nc5c4)nc3c2)CC1; assay = SRB; setting = 10 µM, 48 h; endpoint = growth percent; result = -76.9%
SMILES = C#C[C@@]1(O)[C@@H](CO)O[C@@H](n2cc(Br)c3c(N)ncnc32)[C@@H]1O; assay = SRB; setting = NCI-60 screen; endpoint = TGI; result = > 100 µM
SMILES = CCCN1CCN(c2ccc3[nH]c(-c4ccc5[nH]c(-c6ccc(C(F)(F)F)cc6)nc5c4)nc3c2)CC1; assay = SRB; setting = 10 µM, 48 h; endpoint = growth percent; result = -82.6%
SMILES = NNc1nc(-c2ccc(Cl)cc2)c2c(NC(=O)c3ccccc3)nnc-2[nH]1; assay = SRB; setting = 10 µM, NCI60 single-dose screen, colon cancer; scale = reference: untreated; endpoint = cell growth; result = 107%
SMILES = Cn1cc(-c2ccc(-c3cncc(Cl)c3N3CCC4(CCNC4=O)CC3)cc2)cn1; assay = E2F1 Ser375 phosphorylation, ELISA; setting = 1 µM; endpoint = inhibition; result = no inhibition
SMILES = O=P1(c2ccccc2)CCCCC1; assay = MTT; setting = 72 h; scale = reference: IC50 HaCaT over IC50 SW-620; endpoint = selectivity index; result = 1
SMILES = CN1CCN(c2ccc3[nH]c(-c4ccc5[nH]c(-c6ccc(C(F)(F)F)cc6)nc5c4)nc3c2)CC1; assay = SRB; setting = 10 µM, 48 h; endpoint = growth percent; result = 1.32%
SMILES = O=C(Nc1nnc2[nH]c(=S)[nH]c(-c3ccc(Cl)cc3)c1-2)c1ccccc1; assay = SRB; setting = 10 µM, NCI60 single-dose screen, colon cancer; scale = reference: untreated; endpoint = cell growth; result = 103%
SMILES = C#C[C@@]1(O)[C@@H](CO)O[C@@H](n2ccc3c(N)ncnc32)[C@@H]1O; assay = SRB; setting = NCI-60 screen; endpoint = TGI; result = 12.7 µM
SMILES = CCOc1ccc(-c2nc3cc(-c4nc5cc(N6CCN(C)CC6)ccc5[nH]4)ccc3[nH]2)cc1OCC; assay = SRB; setting = 10 µM, 48 h; endpoint = growth percent; result = 0.49%
SMILES = Cc1cc(-c2ccccc2)n(-c2nc(-c3ccc(Cl)cc3)c3c(NC(=O)c4ccccc4)nnc-3[nH]2)n1; assay = SRB; setting = 10 µM, NCI60 single-dose screen, colon cancer; scale = reference: untreated; endpoint = cell growth; result = 101%
SMILES = Nc1ncnc2c1ncn2C1CCCC1; setting = 100 µM, 96 h; scale = reference: DMSO; endpoint = decrease of IP5 level; result = ~10 fold
SMILES = Cc1cc(=O)[nH]n1-c1nc(-c2ccc(Cl)cc2)c2c(NC(=O)c3ccccc3)nnc-2[nH]1; assay = SRB; setting = 10 µM, NCI60 single-dose screen, colon cancer; scale = reference: untreated; endpoint = cell growth; result = 97%
SMILES = CCCN1CCN(c2ccc3nc(-c4ccc5nc(-c6cc(OC)ccc6OC)[nH]c5c4)[nH]c3c2)CC1; assay = SRB; setting = 10 µM, 48 h; endpoint = growth percent; result = -70.2%
SMILES = O=C1NC(=NCc2cccs2)S/C1=C\c1ccc2ncccc2c1; assay = MTS; test system = colon cancer; endpoint = pIC50; result = < 5.00
SMILES = CCn1cc(-c2cc(Cn3ccnc3)cc3c2CCN([C@H](c2cc(OC)ccn2)C2CC2)C3=O)c(C(F)(F)F)n1; assay = cell growth, inhibitor; setting = 120 h; endpoint = pEC50; result = 7.55
SMILES = O=C1NC(c2ccccc2)(c2ccccc2)C(=O)N1Cc1cn(-c2cc3ccccc3oc2=O)nn1; assay = NCI60 single-dose screen; setting = 10 µM; endpoint = growth percentage; result = 96.8%
SMILES = Cc1cc(C)n(-c2nc(-c3ccc(Cl)cc3)c3c(NC(=O)c4ccccc4)nnc-3[nH]2)n1; assay = SRB; setting = 10 µM, NCI60 single-dose screen, colon cancer; scale = reference: untreated; endpoint = cell growth; result = 95.2%
SMILES = CCCC(CCC)C(=O)OCc1cn(-c2c3ccccc3nc3ccccc23)nn1; assay = NCI60 single-dose screen; setting = 10 µM; endpoint = growth percentage; result = 92.2%
SMILES = Cn1cncc1C1=CN(c2ncnc3[nH]cnc23)CCS1; setting = colon cancer; endpoint = GI50; result = 6.5 µM
SMILES = O=C1NC(c2ccccc2)(c2ccccc2)C(=O)N1Cc1cn(-c2c3ccccc3nc3ccccc23)nn1; assay = NCI60 single-dose screen; setting = 10 µM; endpoint = growth percentage; result = 85.6%
SMILES = CCOC(=O)CSc1nc(-c2ccc(Cl)cc2)c2c(NC(=O)c3ccccc3)nnc-2[nH]1; assay = SRB; setting = 10 µM, NCI60 single-dose screen, colon cancer; scale = reference: untreated; endpoint = cell growth; result = 96.4%
SMILES = O=P1(C2CCCCC2)CCCCC1; assay = Annexin V-FITC/PI flow cytometry; setting = IC50, 72 h; endpoint = late apoptotic cells; result = 4.55%
SMILES = O=c1ccn(Cc2cn(-c3cc4ccccc4oc3=O)nn2)c(=O)[nH]1; assay = NCI60 single-dose screen; setting = 10 µM; endpoint = growth percentage; result = 104%
SMILES = COc1ccc(OC)c(-c2nc3ccc(-c4nc5ccc(N6CCN(C)CC6)cc5[nH]4)cc3[nH]2)c1; assay = SRB; setting = 10 µM, 48 h; endpoint = growth percent; result = 102%
SMILES = S=C([S][Au-][P+](CCCCCC[P+]([Au-][S]C(=S)n1cccn1)(c1ccccc1)c1ccccc1)(c1ccccc1)c1ccccc1)n1cccn1; assay = cell growth, NCI-60 screen; setting = colon cancer; endpoint = log10 TGI; result = > -4

Some of these lines once more:
SMILES = O=C(Nc1nnc2[nH]c(=S)[nH]c(-c3ccc(Cl)cc3)c1-2)c1ccccc1; assay = SRB; setting = 10 µM, NCI60 single-dose screen, colon cancer; scale = reference: untreated; endpoint = cell growth; result = 103%
SMILES = C#C[C@@]1(O)[C@@H](CO)O[C@@H](n2ccc3c(N)ncnc32)[C@@H]1O; assay = SRB; setting = NCI-60 screen; endpoint = TGI; result = 12.7 µM
